Results of several laboratories.
Each line is one published result; not all experiments were run side by side. Values joined by “and” are separate records of one study, mostly repeats; a detail may differ. Numbers after ± are the reported error.

| SMILES | test | system | conditions | how to read | measurement | result |
| --- | --- | --- | --- | --- | --- | --- |
| Nc1ccn(CC2COP(=O)(OCCNC(=O)CCCCC3SCC4NC(=O)NC43)CO2)c(=O)n1 (mixture of isomers) | – | rabbit, retina-choroid | – | baseline: parent CDF | partition coefficient | 3.07 fold |
| CC(C)(CCCC/C=C/CCCCCC(C)(C)C(=O)O)C(=O)O | – | beagle dog, plasma | intravenous, 5 mg/kg | – | Vd | 0.29 L/kg |
| COc1cc(C(=O)NCCOCCOCCOCCNC(=O)c2ccc([18F])nc2)ccc1NC(=O)C1NC(CC(C)(C)C)C(C#N)(c2ccc(Cl)cc2F)C1c1cccc(Cl)c1F (stereo not shown) | HPLC | BALB/c mice, plasma | intravenous, 1 h post injection | – | intact compound | ~30% and 30% |
| CC(C)[C@H](NC(=O)CNC(=O)[C@H](CCC(N)=O)NC(=O)[C@H](C)N)C(=O)O | – | human | 10 mg/kg single dose | – | discontinuation due to adverse events | 0% |
| CC(C)C[C@@H](NC(=O)[C@@H](CCCCN)NC(=O)CNC(=O)CNC(=O)[C@@H]1CSSC[C@H](N)C(=O)NCC(=O)N[C@@H](CCCNC(=N)N)C(=O)N[C@@H](CCCNC(=N)N)C(=O)N[C@@H](C)C(=O)NCC(=O)NCC(=O)N[C@@H](CO)C(=O)N1)C(=O)N[C@H](C)C(=O)N[C@H](CCCCN)C(=O)N[C@H](CC(C)C)C(=O)N[C@H](C)C(=O)N[C@H](CCCCN)C(=O)N[C@H](CCCCN)C(=O)N[C@H](CC(C)C)C(=O)N[C@H](C)C(=O)N[C@H](CCCCN)C(=O)N[C@H](CC(C)C)C(=O)N[C@H](C)C(=O)N[C@H](CCCCN)C(=O)O | – | human | weekly schedule | – | maximum tolerated dose | 20 to 30 mg/m² |
| COC[C@@H](NC(C)=O)C(=O)NCc1ccc(OCc2cccc(OC(F)(F)F)c2)cc1 | behavioural toxicity | rat | oral | – | TD50 | > 500 mg/kg |
| CC(C)C[C@@H](N)C(=O)NCC(=O)N[C@H](C)C(=O)N[C@H](CO)C(=O)N[C@H](Cc1c[nH]c2ccccc12)C(=O)N[C@H](Cc1c[nH]cn1)C(=O)N[C@H](CCCNC(=N)N)C(=O)N1CCC[C@@H]1C(=O)N[C@H](CC(=O)O)C(=O)N[C@H](CCCCN)C(=O)N[C@H](CS)C(=O)N[C@H](CS)C(=O)N[C@H](CC(C)C)C(=O)NCC(=O)N[C@H](Cc1ccc(O)cc1)C(=O)N[C@H](CCC(N)=O)C(=O)N[C@H](CCCCN)C(=O)N[C@H](CCCNC(=N)N)C(=O)N1CCC[C@@H]1C(=O)N[C@H](CC(C)C)C(=O)N1CCC[C@@H]1C(N)=O | LC-MS/MS | rat plasma | 500 ng/mL, 12 h, 25 °C, room temperature before extraction | – | measured concentration | 507 ± 17 ng/mL |
| C[C@H]1N=C(c2ccccc2F)c2cc(Br)ccc2-n2cnc(C(=O)OC3O[C@H](C(=O)O)[C@@H](O)[C@H](O)[C@H]3O)c21 (stereo partly shown) | LC-MS/MS | Swiss Webster mouse, female, urine | intraperitoneal, 750 µg parent drug, 24 to 48 h | – | cumulative excretion | 0.3 ± 0.2% |
| CC[C@H](C)C(=O)N1CCC(NC(=O)Nc2ccc(OC(F)(F)F)c(F)c2)CC1 | – | healthy volunteers | oral, 8 mg single dose | – | subjects with related TEAE | 0% |
| CC[C@H](C)[C@H](NC(=O)CN)C(=O)N[C@@H](CCCNC(=N)N)C(=O)N[C@@H](CCCCN)C(=O)N[C@@H](Cc1c[nH]c2ccccc12)C(=O)N[C@@H](Cc1ccccc1)C(=O)N[C@@H](CCCCN)C(=O)N[C@@H](CCCCN)C(=O)N[C@@H](C)C(=O)N[C@@H](C)C(=O)N[C@@H](Cc1c[nH]cn1)C(=O)N[C@H](C(=O)NCC(=O)N[C@@H](CCCCN)C(=O)N[C@@H](CCC(=O)O)C(=O)N[C@H](C(=O)NCC(=O)N[C@@H](CCCCN)C(=O)N[C@H](C(=O)N[C@@H](C)C(=O)N[C@@H](CC(C)C)C(=O)N[C@@H](CC(N)=O)C(=O)N[C@@H](C)C(=O)N[C@@H](CS)C(=O)N[C@@H](CC(C)C)C(=O)O)C(C)C)C(C)C)C(C)C | – | zebrafish embryos | 1 h, 4, 28, 52 hpf | – | acute toxic concentration | 5 to 25 µg/mL |
